Results gathered from unrelated publications.
Each numbered part is a random draw from the data of one study; scales do not carry over between parts.

Series 1
Target: Histone acetyltransferase KAT6A, winged helix 1, GST fusion (KAT6A, Homo sapiens, UniProt Q92794, residues 1-85)
Method: protein binding microarray
Form: double-stranded DNA, one strand shown
Sample: in vitro
Tested at: not given
Notes: 8-mer, flanks averaged, mean of 2 arrays, mostly near background
Baseline: not given
Reading: higher = stronger binding
Construct (chain): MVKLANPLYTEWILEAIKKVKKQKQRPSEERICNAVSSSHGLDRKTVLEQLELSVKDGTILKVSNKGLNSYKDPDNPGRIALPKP
Sequence | E-score
GCCACCCC | 0.0623
TAAGCGCA | 0.22
CCCATGGG | -0.295
CAAGGATA | -0.155
AAACCGAA | -0.0452
CCTTTCTA | 0.0814
ATGTCAAA | -0.0757
ATGATGGA | -0.162
ATGGATAG | -0.0847
CCGGTTTA | 0.194
ACACCACA | -0.239
CGTCCCGC | 0.407
ATTAACTC | -0.0785
CGAACCTC | 0.00983
GCACGTAC | 0.00802
CTGGAGCA | -0.145
ACAGAGGG | -0.0504
AGACCCAT | -0.0891
CACCCATA | -0.0547
CATCATCG | -0.08
CTCAGAAC | -0.00696
AAGACTCG | 0.0193
ATGAGTGA | -0.207
ACATCGGA | -0.0776
AAGTCCCC | -0.0264

Series 2
Target: Fragile X messenger ribonucleoprotein 1, C-terminal low-complexity region (Fmr1, Mus musculus, UniProt P35922)
Method: RNA Bind-n-Seq
Form: RNA
Sample: in vitro
Tested at: 200 nM
Notes: whole 134-nt RNA, ends assumed
Together with: 150 mM LiCl
Baseline: input library
Reading: higher = stronger binding
Each molecule: 7-deaza-guanosine replaces G
All sequences stand within: GGGAGUUCUACAGUCCGACGAUC … UGGAAUUCUCGGGUGUCAAGG
Sequence | log2 enrichment
CACAGACAACACGCACCCACACAGACACAGAGGGAAGGGGUUGGGAUGGGGAAAAGGUGCACAGCAGGGCGGGGUAGGACCCCAGCCCCU | 0.554
CACAGACAACACGCACCCACACAGACACAGAGGGAAGGGGUUGGAAUGGGGACAGGGUGCACAGCAGGGCGGGGUAGGACCCCAGCCCCU | -0.655
GUCCUGUGCUACACAUCGUAUGUACCGAAUCGGGAAAAAGGGAAAAAGGAAAAAGGGGAAAGUAUUAUGUUACGCCGUUCGGAUCUGCAC | 0.255
UCCUGUGCUACACAUCGUAUGUACCGAAUCGGGAAAAAAAGGGAAAGGGUUUUUUUGGGAAAGUAUUAUGUUACGCCGUUCGGAUCUGCA | -1.22
UCCUGUGCUACACAUCGUAUGUACCGAAUCGGGGAAAAAGGGGUUUUUUUGGGGAGGGGAAAGUAUUAUGUUACGCCGUUCGGAUCUGCA | -0.955
GUUUGAUGAUCGUGGACGGAGUGAUUACGAUGGCAUUGGCAGCCGUGGUGACAGAAGUGGCUUUGGCAAAUUUGAACGUGGUGGAAACAG | 1.27
UUGAAAGAAUUUGCCAACUUUGACUUUGAUGUCUGGAGGAAAAAGUAUAUGCGUUGGAUGAAUCACAAAAAGUCUCGAGUGAUGGAUUUC | -3.66
UCAAGUCCUGUGCUACACAUCGUAUGUACCGAAUCGGGAGGGUUUGGGUUUGGGAAAGUAUUAUGUUACGCCGUUCGGAUCUGCACUUCC | -0.908
CUCAAGUCCUGUGCUACACAUCGUAUGUACCGAAUCGGGUUGGGGUUGGUUGGGAAAGUAUUAUGUUACGCCGUUCGGAUCUGCACUUCC | -0.344
CCUCAAGUCCUGUGCUACACAUCGUAUGUACCGAAUCGGUUUUUGGAGGAGGAAAGUAUUAUGUUACGCCGUUCGGAUCUGCACUUCCAG | -0.455
GCAGGAAGUAAAAACAAAUGGAAAUGCUUCGGAUAGAAACAGGGGUGGGGGUUGCUAAGGAAAGGGUGGGAUGGGAGUGGGUAAAGAGUU | 1.58

Series 3
Target: Sal-like protein 4, full length isoform B (SALL4, Homo sapiens, UniProt Q9UJQ4-2, residues 1-616)
Method: universal PBM
Form: double-stranded DNA, one strand shown
Sample: in vitro
Tested at: not given
Notes: 8-mer, flanks averaged, mean of replicates
Reading: higher = stronger binding
Sequence | E-score
AATGACTG | 0.174
CTTCCCCA | -0.28
CTTATGGC | 0.0997
GAGGTAGC | -0.147
CGCCGTGC | -0.241
AAGTTAGA | 0.108
CAAACTCA | -0.00096
AATTAGAC | 0.242
ATGCGCGG | -0.263
AGCGACAA | 0.0364
AATGACAC | 0.168
ACAGTTTG | 0.0255
CTGGCCGC | -0.189
ATCCGGCC | -0.259
ATAGCACA | 0.124
ACGGCCAG | -0.222
CAGCATCG | -0.242
CACGCGTA | -0.048
AGCAACAG | 0.0214
AAGAAAAT | 0.244
AGAGTCCA | -0.161
TAAAAATA | 0.406

Series 4
Target: Centromere-binding protein 1, full length, His-tagged (CBF1, Saccharomyces cerevisiae, UniProt P17106, residues 1-351)
Chain of UniProt P17106 (whole entry, looked up): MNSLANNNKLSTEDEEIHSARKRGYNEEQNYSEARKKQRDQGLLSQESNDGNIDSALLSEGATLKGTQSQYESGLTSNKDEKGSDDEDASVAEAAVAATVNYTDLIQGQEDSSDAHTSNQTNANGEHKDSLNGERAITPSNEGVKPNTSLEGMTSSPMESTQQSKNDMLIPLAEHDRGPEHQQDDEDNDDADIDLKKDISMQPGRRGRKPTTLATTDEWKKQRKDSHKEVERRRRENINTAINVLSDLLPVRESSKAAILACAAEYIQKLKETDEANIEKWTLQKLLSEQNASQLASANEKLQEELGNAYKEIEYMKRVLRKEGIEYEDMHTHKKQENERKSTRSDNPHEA
Method: competition protein-binding microarray
Form: double-stranded DNA, one strand shown
Sample: in vitro
Tested at: 2 µM
Notes: whole 60-bp probe, lowest competitor level
Together with: Pho4 competitor, 0.05 µM
Reading: higher = stronger binding
All sequences stand within: … GTCTTGATTCGCTTGACGCTGCTG
Sequence | fluorescence intensity [a.u.]
TGACACCCCCCAACACACGTTCCGCCCACTTTTTTT | 122
CTTTCCCGATCTTTTCACGTGAAATTAGCACATTTG | 817
CACTGTTGGTTCGACACCGTGGGTAAAGATGACAGT | 76.3
CCTGTTCTACATGTACTCGTGCTTTCTTTATTGCTT | 170
CTAACGAAGGTTTGATACGTGGGTGACAAGCCAAGT | 76.5
GATTTTGGCCGCTGGCACGTGCAGTTTCTATTAACT | 2200
CGGGGTTAAGTTTGGACGGTGGGTGGCTTGCAGCAG | 59.7
TTGTAGTTGTTGCTGTTGAGGTGGCAGTTGAGAGCT | 69.9
CGTCCTAGCGATTGAAAAGTGGGTGCCATGAGGAAG | 73.2
CCCATTGAATTCGGGAATGTGCGGGTTTCAGATTGC | 67.1
GTCTTGTCTCATTGGCGCGTGGGTGTCCCCACTTCA | 88.6
CCTTGGCTGCCAAGGCCCGTGGTGAGCCATTGACCT | 48.9
CTGCCATTCAAGCCAAGCGTGTCTGTATCCAAAAGA | 73.8
CCGAGACATCTTAGTCAGCTGAGACAAGAAAGGCAA | 172
GTAGTTTGCATTTTGCACGTTTCCCTTTCCATGCAA | 150
ACTCCCTGGAAAAAGCACGTGCCGAGCTGGATCTGC | 1970
TAAACTCACCTAATTCGCATGACAAGGTCCCTGAAA | 68.9
CTAACGAAGGTTTGTCACGCGACTTACAAGCCAAGT | 621
CCTATGTATTACCATCACGTGGGTAGGGAAGACTAC | 3590
TATCTCTATCCTGCGACCGTGATGGTACCGAAAGTA | 68.2
CGATGAAATCTTCTTCACGTTCAACTTGTCTGATAC | 87
AAATTACTAAGTTGTTCTGTGGGTGACGCCGTATGA | 66.2
TGCTTCTTTTTCCTTCACGTGTGGAGCCAAGTGCGG | 882
CTTTCCCGATCTTGATAGGTGGGTGTAGCACATTTG | 77.5
TGCGCAACAACTTTTCACGTGATATTATGTCTAGAA | 3290

Series 5
Target: Prothrombin, mature alpha-thrombin (F2, Homo sapiens, UniProt P00734)
Method: aptamer microarray, sandwich
Form: DNA with 2'F-ANA
Sample: in vitro
Tested at: 200 nM
Notes: whole 15-mer aptamer, many near background
Together with: Cy3 exosite-II aptamer, 400 nM
Reading: higher = stronger binding
Sequence: GGTTGGTGTGGTTGG
Modification | mean fluorescence intensity
2'F-ANA at 3 6 9 12 13 | 1060 a.u.
2'F-ANA at 3 5 6 10 11 13 14 15 | 49.5 a.u.
2'F-ANA at 6 7 8 9 11 14 | 182 a.u.
2'F-ANA at 2 6 8 9 14 | 130 a.u.
2'F-ANA at 1 3 4 5 7 8 9 11 12 13 | 72.2 a.u.
2'F-ANA at 1 2 4 5 8 10 12 13 14 | 49 a.u.
2'F-ANA at 1 2 5 7 8 10 11 12 13 14 15 | 48.8 a.u.
2'F-ANA at 3 4 5 6 11 14 15 | 52.8 a.u.
2'F-ANA at 1 2 4 6 8 9 10 12 15 | 76.4 a.u.
2'F-ANA at 3 6 8 10 13 15 | 484 a.u.
2'F-ANA at 3 11 12 15 | 1180 a.u.
2'F-ANA at 2 4 6 7 9 10 15 | 77.5 a.u.
2'F-ANA at 2 3 5 7 11 12 13 14 15 | 57.1 a.u.
2'F-ANA at 3 6 7 9 10 11 12 | 550 a.u.
2'F-ANA at 1 3 4 5 6 7 9 10 11 12 15 | 54.7 a.u.
2'F-ANA at 1 6 11 12 14 | 68.5 a.u.
2'F-ANA at 2 3 6 9 10 12 13 | 347 a.u.
2'F-ANA at 1 2 4 6 7 8 10 12 13 14 | 42.2 a.u.
2'F-ANA at 1 2 5 6 9 10 12 13 14 15 | 58.8 a.u.
2'F-ANA at 2 4 5 6 7 8 10 12 15 | 50.7 a.u.
2'F-ANA at 1 2 5 6 8 10 12 13 14 15 | 91.6 a.u.
2'F-ANA at 2 3 5 6 7 9 10 13 14 | 49.9 a.u.
2'F-ANA at 2 4 6 7 8 9 12 14 15 | 111 a.u.
2'F-ANA at 2 4 5 7 9 10 11 13 14 15 | 46.3 a.u.
2'F-ANA at 1 3 5 7 8 12 14 15 | 52.2 a.u.

For quick reference, copied from above (series 4):
Sequence | fluorescence intensity [a.u.]
CTAACGAAGGTTTGATACGTGGGTGACAAGCCAAGT | 76.5
AAATTACTAAGTTGTTCTGTGGGTGACGCCGTATGA | 66.2
GTCTTGTCTCATTGGCGCGTGGGTGTCCCCACTTCA | 88.6
CCTATGTATTACCATCACGTGGGTAGGGAAGACTAC | 3590
TGCTTCTTTTTCCTTCACGTGTGGAGCCAAGTGCGG | 882
TAAACTCACCTAATTCGCATGACAAGGTCCCTGAAA | 68.9
CCCATTGAATTCGGGAATGTGCGGGTTTCAGATTGC | 67.1
ACTCCCTGGAAAAAGCACGTGCCGAGCTGGATCTGC | 1970
GATTTTGGCCGCTGGCACGTGCAGTTTCTATTAACT | 2200
CTAACGAAGGTTTGTCACGCGACTTACAAGCCAAGT | 621
